Results gathered from unrelated publications.
Each line is one published result; not all experiments were run side by side. “And” joins repeats or separate records; there may be more than shown. Numbers after ± are the reported error.
VHL with elongin B/C: von Hippel-Lindau disease tumor suppressor, with elongin B/C (VHL, Homo sapiens, UniProt P40337)
UniProt P40337, sequence (whole entry, looked up): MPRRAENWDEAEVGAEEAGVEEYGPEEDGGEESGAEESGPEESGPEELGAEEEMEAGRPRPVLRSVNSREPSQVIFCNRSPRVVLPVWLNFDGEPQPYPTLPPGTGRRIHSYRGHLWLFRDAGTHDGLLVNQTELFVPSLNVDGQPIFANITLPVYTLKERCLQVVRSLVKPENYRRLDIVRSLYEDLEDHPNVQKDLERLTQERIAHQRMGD
IFIT1: Antiviral innate immune response effector IFIT1 (IFIT1, Homo sapiens, UniProt P09914)
UniProt P09914, sequence (whole entry, looked up): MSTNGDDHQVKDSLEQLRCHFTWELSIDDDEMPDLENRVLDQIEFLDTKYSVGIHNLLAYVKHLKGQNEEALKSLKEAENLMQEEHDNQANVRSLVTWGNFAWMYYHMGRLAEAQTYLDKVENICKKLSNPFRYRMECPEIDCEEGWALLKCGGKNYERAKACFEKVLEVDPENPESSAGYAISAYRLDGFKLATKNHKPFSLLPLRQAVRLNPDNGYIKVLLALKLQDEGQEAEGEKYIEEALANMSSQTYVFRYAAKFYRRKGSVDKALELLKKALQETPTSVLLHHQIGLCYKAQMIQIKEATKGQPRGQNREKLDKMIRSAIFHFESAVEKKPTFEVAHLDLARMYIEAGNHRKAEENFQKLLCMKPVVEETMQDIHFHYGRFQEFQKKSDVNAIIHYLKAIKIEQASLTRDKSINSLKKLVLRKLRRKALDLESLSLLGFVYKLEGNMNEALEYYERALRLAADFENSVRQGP
STING1 H232R: Stimulator of interferon genes protein (STING1, Homo sapiens, UniProt Q86WV6, H232R)
UniProt Q9SZU7, sequence (whole entry, unmodified, looked up): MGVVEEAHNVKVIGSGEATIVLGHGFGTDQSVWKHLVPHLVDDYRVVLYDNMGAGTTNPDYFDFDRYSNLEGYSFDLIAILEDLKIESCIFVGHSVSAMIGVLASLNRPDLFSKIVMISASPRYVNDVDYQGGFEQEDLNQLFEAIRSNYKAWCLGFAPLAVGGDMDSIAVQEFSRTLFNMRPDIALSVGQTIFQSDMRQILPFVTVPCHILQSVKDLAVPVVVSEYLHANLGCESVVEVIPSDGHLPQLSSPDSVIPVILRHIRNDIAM
UniProt Q86WV6, sequence (whole entry, unmodified, looked up): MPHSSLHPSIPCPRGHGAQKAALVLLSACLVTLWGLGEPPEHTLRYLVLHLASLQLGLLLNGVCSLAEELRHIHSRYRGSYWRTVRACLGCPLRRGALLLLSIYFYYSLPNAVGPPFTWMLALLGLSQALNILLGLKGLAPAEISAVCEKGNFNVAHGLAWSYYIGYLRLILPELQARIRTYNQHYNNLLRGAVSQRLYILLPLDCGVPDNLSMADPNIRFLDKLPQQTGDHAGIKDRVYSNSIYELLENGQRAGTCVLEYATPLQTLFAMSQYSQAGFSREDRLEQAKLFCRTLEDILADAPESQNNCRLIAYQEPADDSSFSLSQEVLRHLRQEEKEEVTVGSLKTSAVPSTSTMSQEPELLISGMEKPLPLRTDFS
UniProt P02754, sequence (whole entry, unmodified, looked up): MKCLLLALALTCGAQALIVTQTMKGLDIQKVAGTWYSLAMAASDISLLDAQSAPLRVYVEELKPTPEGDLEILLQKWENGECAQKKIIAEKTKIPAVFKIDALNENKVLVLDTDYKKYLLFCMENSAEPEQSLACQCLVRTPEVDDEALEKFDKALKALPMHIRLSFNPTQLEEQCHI
UniProt Q9HC29, sequence (whole entry, looked up): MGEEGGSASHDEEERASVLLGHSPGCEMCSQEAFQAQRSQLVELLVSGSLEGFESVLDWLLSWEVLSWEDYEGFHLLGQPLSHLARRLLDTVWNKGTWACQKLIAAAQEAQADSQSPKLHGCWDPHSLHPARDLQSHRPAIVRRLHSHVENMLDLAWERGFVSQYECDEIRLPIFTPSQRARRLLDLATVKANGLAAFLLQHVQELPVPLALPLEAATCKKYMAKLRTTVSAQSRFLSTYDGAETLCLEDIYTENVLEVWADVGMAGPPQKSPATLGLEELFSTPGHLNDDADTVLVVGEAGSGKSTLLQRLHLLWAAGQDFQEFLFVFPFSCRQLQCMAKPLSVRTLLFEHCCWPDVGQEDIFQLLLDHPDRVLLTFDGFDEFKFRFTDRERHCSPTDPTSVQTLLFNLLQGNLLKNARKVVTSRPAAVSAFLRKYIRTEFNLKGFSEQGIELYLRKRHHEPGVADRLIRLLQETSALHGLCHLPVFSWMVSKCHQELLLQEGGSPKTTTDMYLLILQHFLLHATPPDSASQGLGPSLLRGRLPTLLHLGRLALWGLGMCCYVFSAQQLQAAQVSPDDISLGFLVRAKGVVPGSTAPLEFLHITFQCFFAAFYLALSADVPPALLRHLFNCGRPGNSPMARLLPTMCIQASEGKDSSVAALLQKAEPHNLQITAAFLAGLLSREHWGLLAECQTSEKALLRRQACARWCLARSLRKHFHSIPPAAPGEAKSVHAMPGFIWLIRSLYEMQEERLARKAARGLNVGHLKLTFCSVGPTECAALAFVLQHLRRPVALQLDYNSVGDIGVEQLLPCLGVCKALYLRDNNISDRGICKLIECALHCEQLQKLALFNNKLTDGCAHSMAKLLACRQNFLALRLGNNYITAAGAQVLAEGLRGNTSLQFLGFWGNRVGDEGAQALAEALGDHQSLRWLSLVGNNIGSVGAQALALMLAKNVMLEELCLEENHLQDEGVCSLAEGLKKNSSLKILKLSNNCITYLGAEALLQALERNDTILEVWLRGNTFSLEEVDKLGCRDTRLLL
UniProt P43166, sequence (whole entry, looked up): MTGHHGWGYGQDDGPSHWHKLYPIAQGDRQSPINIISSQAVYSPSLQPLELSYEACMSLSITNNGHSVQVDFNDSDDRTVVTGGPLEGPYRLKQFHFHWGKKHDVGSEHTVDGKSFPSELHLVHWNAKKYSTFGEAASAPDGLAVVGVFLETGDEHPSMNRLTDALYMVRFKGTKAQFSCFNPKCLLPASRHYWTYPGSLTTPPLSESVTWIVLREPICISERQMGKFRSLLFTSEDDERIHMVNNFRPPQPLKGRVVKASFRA
UniProt Q8TF76, sequence (whole entry, looked up): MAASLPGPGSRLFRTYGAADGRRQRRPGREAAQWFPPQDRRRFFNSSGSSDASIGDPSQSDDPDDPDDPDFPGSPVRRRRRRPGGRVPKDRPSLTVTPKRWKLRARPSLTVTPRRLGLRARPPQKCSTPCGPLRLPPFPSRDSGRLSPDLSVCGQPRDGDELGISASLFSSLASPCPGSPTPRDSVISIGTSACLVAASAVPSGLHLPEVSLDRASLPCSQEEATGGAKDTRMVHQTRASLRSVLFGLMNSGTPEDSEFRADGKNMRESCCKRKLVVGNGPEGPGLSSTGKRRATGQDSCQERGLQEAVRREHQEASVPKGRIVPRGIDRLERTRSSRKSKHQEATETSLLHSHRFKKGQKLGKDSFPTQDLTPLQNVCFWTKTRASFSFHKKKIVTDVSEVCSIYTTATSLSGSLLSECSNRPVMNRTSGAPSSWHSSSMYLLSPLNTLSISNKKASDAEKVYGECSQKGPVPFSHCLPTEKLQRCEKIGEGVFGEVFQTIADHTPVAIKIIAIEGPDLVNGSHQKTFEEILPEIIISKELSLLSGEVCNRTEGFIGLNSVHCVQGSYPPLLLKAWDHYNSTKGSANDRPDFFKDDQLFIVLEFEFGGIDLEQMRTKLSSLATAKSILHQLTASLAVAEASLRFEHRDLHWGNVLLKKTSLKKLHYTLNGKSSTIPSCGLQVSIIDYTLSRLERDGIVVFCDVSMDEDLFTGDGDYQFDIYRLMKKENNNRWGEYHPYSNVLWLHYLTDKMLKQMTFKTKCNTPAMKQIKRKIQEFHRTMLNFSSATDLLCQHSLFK
UniProt Q96CN7, sequence (whole entry, looked up): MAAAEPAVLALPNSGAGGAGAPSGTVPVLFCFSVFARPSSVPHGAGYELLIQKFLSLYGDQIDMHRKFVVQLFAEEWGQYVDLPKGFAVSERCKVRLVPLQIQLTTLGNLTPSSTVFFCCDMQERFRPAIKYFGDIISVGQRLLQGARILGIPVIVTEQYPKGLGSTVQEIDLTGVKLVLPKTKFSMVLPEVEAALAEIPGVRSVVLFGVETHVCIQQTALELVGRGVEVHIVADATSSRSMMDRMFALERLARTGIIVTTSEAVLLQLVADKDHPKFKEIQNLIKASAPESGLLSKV
UniProt P20273, sequence (whole entry, looked up): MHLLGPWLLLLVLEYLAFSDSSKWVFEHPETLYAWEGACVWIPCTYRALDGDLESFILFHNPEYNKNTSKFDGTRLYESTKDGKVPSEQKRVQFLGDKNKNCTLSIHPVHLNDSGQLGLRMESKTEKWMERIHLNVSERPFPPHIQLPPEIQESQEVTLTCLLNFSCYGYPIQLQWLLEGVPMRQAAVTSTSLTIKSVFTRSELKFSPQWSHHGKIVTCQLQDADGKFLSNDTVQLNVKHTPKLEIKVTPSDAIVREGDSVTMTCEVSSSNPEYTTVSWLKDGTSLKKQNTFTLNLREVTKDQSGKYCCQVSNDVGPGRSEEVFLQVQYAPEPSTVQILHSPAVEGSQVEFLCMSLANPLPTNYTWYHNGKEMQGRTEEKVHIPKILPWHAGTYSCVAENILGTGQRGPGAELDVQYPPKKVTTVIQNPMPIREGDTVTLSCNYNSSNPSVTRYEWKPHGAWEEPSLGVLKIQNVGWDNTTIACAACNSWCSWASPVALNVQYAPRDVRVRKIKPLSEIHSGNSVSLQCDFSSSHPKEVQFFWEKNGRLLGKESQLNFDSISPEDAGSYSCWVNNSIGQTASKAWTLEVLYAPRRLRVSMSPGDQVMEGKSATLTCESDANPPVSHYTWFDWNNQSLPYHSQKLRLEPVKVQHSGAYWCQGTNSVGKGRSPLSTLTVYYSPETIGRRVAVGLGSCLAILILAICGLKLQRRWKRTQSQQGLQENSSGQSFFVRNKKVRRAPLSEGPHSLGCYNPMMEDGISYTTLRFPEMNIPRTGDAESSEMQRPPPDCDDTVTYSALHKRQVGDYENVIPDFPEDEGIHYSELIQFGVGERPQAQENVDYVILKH

Structure (SMILES) = CC(=O)NCCN(c1nc(NCc2n[nH]c3c2CCCC3)nc(N2CC3C(CCOc4cc(-c5scnc5C)ccc4CNC(=O)[C@@H]4C[C@@H](O)CN4C(=O)[C@@H](NC(=O)C4(F)CC4)C(C)(C)C)C3C2)n1)C(C)C (stereo partly drawn); target or system = VHL with elongin B/C; test = binary binding, SPR; quantity = Kd; value = 0.037 µM
Structure (SMILES) = C=CC(=O)N1C[C@H](C)N(c2nc(OC[C@@]34CCCN3C[C@H](F)C4)nc3c(F)c(-c4ccc(F)c5sc(N)c(C#N)c45)c(C(F)(F)F)cc23)C[C@H]1C; target or system = GTPase KRas, GppNHp-bound (KRAS, Homo sapiens, UniProt P01116, Q61H); quantity = Kd; value = 9.8 µM and 10.3 µM
Structure (SMILES) = Cc1ncsc1-c1ccc(C(C)NC(=O)C2CC(O)CN2C(=O)C(NC(=O)CCCCCCCCCCN2CCCC(Nc3ncc(Cl)c(Nc4ccccc4S(=O)(=O)C(C)C)n3)C2)C(C)(C)C)cc1 (stereo not drawn); target or system = 22Rv1; test = RNA-seq, item: RIMBP3 mRNA; setting = concentration not given; scale = baseline: DMSO; quantity = log2 fold change; value = -6.21
Structure (SMILES) = CCN(CC)CCCC[C@H](NC(=O)[C@H](CC(C)C)NC(=O)[C@H](C)NC(=O)[C@H](Cc1ccccc1)NC(=O)c1ccc(C(C)(C)C)cc1)C(=O)N[C@@H](CO)C(=O)O; target or system = Chromobox protein homolog 7 (Homo sapiens, UniProt O95931); test = binding, ITC; quantity = Kd; value = 0.41 µM
Structure (SMILES) = Cc1c[nH]c2nccc(-c3ccc(C(=O)N[C@@H]4c5c(F)cc(C(F)F)cc5C[C@@H]4O)cn3)c12; target or system = HASPIN (Homo sapiens, UniProt Q8TF76); test = binding, competition with immobilised ligand; quantity = Kd; value = 0.382 µM
Structure (SMILES) = Nc1nc2c(ncn2[C@@H]2O[C@H](COP(=O)(O)O[C@H]3[C@@H](O)[C@H](n4cnc5c(N)ncnc54)O[C@@H]3COP(=O)(O)OP(=O)(O)OP(=O)(O)OC[C@H]3O[C@@H](n4cnc5c(=O)[nH]c(N)nc54)[C@H](O)[C@@H]3O)[C@@H](O)[C@H]2O)c(=O)[nH]1; target or system = IFIT1; test = binding, microscale thermophoresis; setting = pH 7.5; quantity = Kd; value = 3700 µM
Structure (SMILES) = CC(=O)N[C@H]1C(O)O[C@H](CO)[C@@H](O)[C@@H]1O[C@H](C)C(=O)N[C@@H](C)C(=O)N[C@H](CCC(=O)O)C(N)=O (stereo partly drawn); target or system = NOD2 (Homo sapiens, UniProt Q9HC29); test = binding, backscattering interferometry; test system = HEK293T cell vesicles; quantity = Kd; value = 0.003 to 0.03 µM
Structure (SMILES) = Cc1cccc2c1N(C(=O)n1ccnn1)CC2; target or system = KAI2 (Arabidopsis thaliana, UniProt Q9SZU7, L142A); test = ITC; setting = L142A mutant; quantity = Kd; value = 11.6 µM and 10.3 µM and 9.26 µM
Structure (SMILES) = NS(=O)(=O)c1cc(C(=O)NCCCC(=O)O)c(NC2CCCCC2)cc1Cl; target or system = CA7 (Homo sapiens, UniProt P43166); setting = pH 7; quantity = Kd; value = 14 µM
Structure (SMILES) = CC(=O)N[C@H]1[C@H]([C@H](O)[C@H](O)CNC(=O)c2ccc(-c3ccccc3)cc2)O[C@@](OCc2cccc(Cl)c2Cl)(C(=O)O)C[C@@H]1O; target or system = CD22 (Homo sapiens, UniProt P20273); test = binding, ITC; quantity = Kd; value = 0.63 µM
Structure (SMILES) = CC[C@H](C)[C@H](NC(=O)[C@H](C)NC(=O)[C@@H](N)CO)C(=O)N[C@@H](CCCNC(=N)N)C(=O)NCC(=O)N[C@@H](C)C(=O)O; target or system = AimR transcriptional regulator (aimR, Bacillus phage phi3T, UniProt P0DOE3); test = ITC; test system = phage phi3T; setting = pH 8, 25 °C; quantity = Kd; value = 0.0067 ± 0.0006 µM
Structure (SMILES) = CC(=O)N1c2ccc(-c3ccc(CNC(=O)c4cn5cc(-c6cnc(N)nc6)nc(N6CCOCC6)c5n4)cc3)cc2CC[C@@H]1C; target or system = Bromodomain testis-specific protein, BD1 (BRDT, Homo sapiens, UniProt Q58F21); test = binding, competition with immobilised ligand; quantity = Kd; value = 0.083 µM
Structure (SMILES) = CC(=O)NCCN(c1nc(N2CC3C(CCOc4cc(-c5scnc5C)ccc4CNC(=O)[C@@H]4C[C@@H](O)CN4C(=O)[C@@H](NC(=O)C4(F)CC4)C(C)(C)C)C3C2)nc(N2CC(n3ccnc3)C2)n1)C(C)C (stereo partly drawn); target or system = VHL with elongin B/C; test = binary binding, SPR; quantity = Kd; value = 0.034 µM
Structure (SMILES) = C[n+]1cn([C@@H]2O[C@H](COP(=O)(O)OP(=O)([O-])OP(=O)(O)OC[C@H]3O[C@@H](n4cnc5c(N)ncnc54)[C@H](O)[C@@H]3OP(=O)(O)OC[C@H]3O[C@@H](n4cnc5c(=O)[nH]c(N)nc54)[C@H](O)[C@@H]3O)[C@@H](O)[C@H]2O)c2nc(N)nc(O)c21; target or system = IFIT1; test = microscale thermophoresis; setting = pH 7.5, together with: unstructured cap II RNA, 35 nt; quantity = Kd; value = 0.015 µM
Structure (SMILES) = CCc1nc2cc3ccccc3cc2cc1C(=O)N1CCC[C@H]1C(=O)N[C@@H](C/C=C\C[C@H](NC(=O)[C@@H]1CCCN1C(=O)c1cc2cc3ccccc3cc2nc1CC)C(=O)N[C@@H](CCCCN)C(=O)NCCCN)C(=O)N[C@@H](CCCCN)C(=O)NCCCN; target or system = CUG–CAG duplex RNA; test = SPR; quantity = Kd; value = 0.078 µM
Structure (SMILES) = Cc1ncsc1-c1ccc(CNC(=O)[C@@H]2C[C@@H](O)CN2C(=O)[C@@H](NC(=O)C2(F)CC2)C(C)(C)C)c(OCCC2CCN(c3nc(NCC(C)(C)C4(O)CCOC4)nc(N4CCC[C@H]4Cn4ccnn4)n3)CC2)c1 (stereo partly drawn); target or system = VHL with elongin B/C; test = binary binding, SPR; quantity = Kd; value = 0.0082 µM
Structure (SMILES) = O=C(N[C@@H](CCNC(=O)c1ccc([N+](=O)[O-])o1)c1nc2ccccc2[nH]1)c1ccc(-n2ccnn2)cc1; target or system = STING1 H232R; test = reporter gene, inhibitor; test system = THP1-Dual KI-hSTING-R232; setting = 24 h, 1 h preincubation, together with: diABZI 500 nM; quantity = EC50; value = 21.7 µM
Structure (SMILES) = CC(/C=C/C(=O)NO)=C\[C@@H](C)C(=O)c1ccc(N(C)C)cc1; target or system = Isochorismatase domain-containing protein 1 (Homo sapiens, UniProt Q96CN7); test = inhibitor, competition pulldown; test system = SW620 and MV4-11 lysate; setting = 1 h; quantity = Kd; value = > 30.2 µM
Structure (SMILES) = NC(=O)c1ccc[n+]([C@@H]2O[C@H](COP(=O)(O)OP(=O)([O-])OC[C@H]3O[C@@H](n4cnc5c(N)ncnc54)[C@H](O)[C@@H]3OP(=O)(O)OC[C@H]3O[C@@H](n4cnc5c(=O)[nH]c(N)nc54)[C@H](O)[C@@H]3O)[C@@H](O)[C@H]2O)c1; target or system = IFIT1; test = binding, microscale thermophoresis; setting = pH 7.5, 70 nt capped RNA; quantity = Kd; value = 1 µM
Structure (SMILES) = CC(=O)c1cnc2ccc(-c3cc(Cl)c(O)c(Cl)c3)nc2c1N[C@H]1CC[C@H](CN(C)C)CC1; target or system = Receptor-like protein kinase FERONIA (FER, Arabidopsis thaliana, UniProt Q9SCZ4, D679A); test = binding, SPR; setting = mutant protein; quantity = Kd; value = 3 µM
Structure (SMILES) = O=C(c1ccc([125I])cc1)N1CCC(n2cncc2-c2ccc(OS(=O)(=O)c3cccc4cnccc34)cc2)CC1; target or system = P2X purinoceptor 7 (P2RX7, Homo sapiens, UniProt Q99572); test = binding, radioligand; setting = cell membranes; quantity = Kd; value = 0.00186 µM
Structure (SMILES) = CC(=O)NCC1CCCCN1c1nc(NCCn2nnc(C)n2)nc(N2CC3C(CCOc4cc(-c5scnc5C)ccc4CNC(=O)[C@@H]4C[C@@H](O)CN4C(=O)[C@@H](NC(=O)C4(F)CC4)C(C)(C)C)C3C2)n1 (stereo partly drawn); target or system = VHL with elongin B/C; test = binary binding, SPR; quantity = Kd; value = 0.027 µM
Structure (SMILES) = CCc1nc2cc3ccccc3cc2cc1C(=O)N[C@@H](CCCCN)C(=O)N[C@@H](C/C=C/C[C@H](NC(=O)[C@H](CCCCN)NC(=O)c1cc2cc3ccccc3cc2nc1CC)C(=O)N1CCC[C@H]1C(=O)NCCCN)C(=O)N1CCC[C@H]1C(=O)NCCCN; target or system = CUG–CAG duplex RNA; test = SPR; quantity = Kd; value = 0.0803 µM
Structure (SMILES) = O=C(O)[C@H]1O[C@@H](O[C@H]2[C@H](O)[C@H](O)[C@H](O[C@H]3[C@H](O)[C@H](O)[C@H](O)O[C@@H]3C(=O)O)O[C@H]2C(=O)O)[C@@H](O)[C@@H](O)[C@@H]1O[C@@H]1O[C@@H](C(=O)O)[C@@H](O)[C@H](O)[C@@H]1O; target or system = Beta-lactoglobulin (LGB, Bos taurus, UniProt P02754, A134V/G80D); test = isothermal titration calorimetry; setting = pH 2.65, 37 °C, 50 mM KH2PO4; quantity = Kd; value = 439 µM
Structure (SMILES) = C[n+]1cn([C@@H]2O[C@H](COP(=O)(O)OP(=O)([O-])OP(=O)(O)OC[C@H]3O[C@@H](n4cnc5c(=O)[nH]c(N)nc54)[C@H](O)[C@@H]3OP(=O)(O)OC[C@H]3O[C@@H](n4cnc5c(=O)[nH]c(N)nc54)[C@H](O)[C@@H]3O)[C@@H](O)[C@H]2O)c2nc(N)nc(O)c21; target or system = IFIT1; test = binding, microscale thermophoresis; setting = pH 7.5, 70 nt capped RNA; quantity = Kd; value = 0.33 µM
Structure (SMILES) = CCc1c(C(=O)N[C@@H](CCNC(=O)c2ccc([N+](=O)[O-])o2)c2nc3ccccc3[nH]2)nnn1-c1ccc(C)cc1F; target or system = STING1 H232R; test = reporter gene, inhibitor; test system = THP1-Dual KI-hSTING-R232; setting = 24 h, 1 h preincubation, together with: diABZI 500 nM; quantity = EC50; value = 3.8 µM
Structure (SMILES) = C[n+]1cn([C@@H]2O[C@H](COP(=O)(O)OP(=O)([O-])OP(=O)(O)OC[C@H]3O[C@@H](n4ccc(=O)[nH]c4=O)[C@H](O)[C@@H]3OP(=O)(O)OC[C@H]3O[C@@H](n4cnc5c(=O)[nH]c(N)nc54)[C@H](O)[C@@H]3O)[C@@H](O)[C@H]2O)c2nc(N)nc(O)c21; target or system = IFIT1; test = binding, microscale thermophoresis; setting = pH 7.5, 70 nt capped RNA; quantity = Kd; value = 0.13 µM
Structure (SMILES) = COC1CN([C@H]2CC[C@H]([C@@]3(C)Oc4c(Cl)cc(C(=O)NCc5c(SC)cc(C)[nH]c5=O)c(C)c4O3)CC2)C1; test = RNA-seq, item: ARNT2; test system = human, whole blood; setting = dose not given, 24 h; scale = baseline: pretreatment baseline; quantity = log2 fold change; value = 8.05
Structure (SMILES) = Nc1nc2c(ncn2[C@@H]2O[C@H](COP(=O)(O)O[C@H]3[C@@H](O)[C@H](n4ccc(=O)[nH]c4=O)O[C@@H]3COP(=O)(O)OP(=O)(O)O[C@H]3O[C@H](CO)[C@@H](O)[C@H](O)[C@H]3O)[C@@H](O)[C@H]2O)c(=O)[nH]1; target or system = IFIT1; test = binding, microscale thermophoresis; setting = pH 7.5, 70 nt capped RNA; quantity = Kd; value = 8.2 µM
Structure (SMILES) = [3H]C([3H])([3H])Oc1ccccc1-c1cnn2ccc(NC[C@@H]3CCCN3C(=O)OC(C)(C)C)nc12; target or system = AP2-associated protein kinase 1 (Mus musculus, UniProt Q3UHJ0); test = binding, radioligand binding; quantity = Kd; value = 0.000467 ± 5.6e-05 µM

Some of these lines once more:
Structure (SMILES) = Nc1nc2c(ncn2[C@@H]2O[C@H](COP(=O)(O)O[C@H]3[C@@H](O)[C@H](n4ccc(=O)[nH]c4=O)O[C@@H]3COP(=O)(O)OP(=O)(O)O[C@H]3O[C@H](CO)[C@@H](O)[C@H](O)[C@H]3O)[C@@H](O)[C@H]2O)c(=O)[nH]1; target or system = IFIT1; test = binding, microscale thermophoresis; setting = pH 7.5, 70 nt capped RNA; quantity = Kd; value = 8.2 µM
Structure (SMILES) = Cc1ncsc1-c1ccc(CNC(=O)[C@@H]2C[C@@H](O)CN2C(=O)[C@@H](NC(=O)C2(F)CC2)C(C)(C)C)c(OCCC2CCN(c3nc(NCC(C)(C)C4(O)CCOC4)nc(N4CCC[C@H]4Cn4ccnn4)n3)CC2)c1 (stereo partly drawn); target or system = VHL with elongin B/C; test = binary binding, SPR; quantity = Kd; value = 0.0082 µM
Structure (SMILES) = O=C(O)[C@H]1O[C@@H](O[C@H]2[C@H](O)[C@H](O)[C@H](O[C@H]3[C@H](O)[C@H](O)[C@H](O)O[C@@H]3C(=O)O)O[C@H]2C(=O)O)[C@@H](O)[C@@H](O)[C@@H]1O[C@@H]1O[C@@H](C(=O)O)[C@@H](O)[C@H](O)[C@@H]1O; target or system = Beta-lactoglobulin (LGB, Bos taurus, UniProt P02754, A134V/G80D); test = isothermal titration calorimetry; setting = pH 2.65, 37 °C, 50 mM KH2PO4; quantity = Kd; value = 439 µM
